Measured values gathered from unrelated publications.
A part holds a random share of what one study measured. Positions count from the first letter of the parent shown.

Block 1
Target: UBE2D1 UBC core domain (UniProt P51668)
Technique: yeast two-hybrid
Sample: yeast
Notes: mostly zero background
Relative to: not given
Reading: higher = stronger interaction
B1: RNF130 RING domain (UniProt Q86XS8); chain DKETDPDFDHCAVCIESYKQNDVVRILPCKHVFHKSCVDPWLSEHCTCPMCKLNILKALGIV
B2: RNF17 RING domain (UniProt Q9BXT8); chain SQPWGAAEIQCTRCGRRVSRSSGHHCELQCGHAFCELCLLMTEECTTIICPDCEVATAVNTRQR
B3: RNF7 RING domain (UniProt Q9UBF6); chain AICRVQVMDACLRCQAENKQEDCVVVWGECNHSFHNCCMSLWVKQNNRCPLCQQDWVVQRIGK
B4: RNF10 RING domain (UniProt Q8N5U6); chain VRICSHEVPSCPICLYPPTAAKITRCGHIFCWACILHYLSLSEKTWSKCPICYSSVHKKDLKS
B5: MARCHF2 RING domain (UniProt Q9P0N8); chain RLLSTVIRALDTPSDGPFCRICHEGANGECLLSPCGCTGTLGAVHKSCLEKWLSSSNTSYCELCHTEFAVEKRPRPLTEWL
B6: SHPRH RING domain (UniProt Q149N8); chain KTSGGVNPEPCPICARQLGKQWAVLTCGHCFCNECISIIIEQYSVGSHRSSIKCAICRQTTSHKEISY
B7: CBLL1 RING domain (UniProt Q75N03); chain GEKDDTPVHFCDKCGLPIKIYGRMIPCKHVFCYDCAILHEKKGDKMCPGCSDPVQRIEQCT
B8: MDM2 RING domain (UniProt Q00987); chain TQDKEESVESSLPLNAIEPCVICQGRPKNGCIVHGKTGHLMACFTCAKKLKKRNKPCPVCRQPIQMIVLTYFP
B9: TRIM47 RING domain (UniProt Q96LD4); chain MDGSGPFSCPICLEPLREPVTLPCGHNFCLACLGALWPHRGASGAGGPGGAARCPLCQEPFPDGLQLR
B10: TRIM68 RING domain (UniProt Q6AZZ1); chain LVEAIVEEVACPICMTFLREPMSIDCGHSFCHSCLSGLWEIPGESQNWGYTCPLCRAPVQPRNLRP
Construct (chain): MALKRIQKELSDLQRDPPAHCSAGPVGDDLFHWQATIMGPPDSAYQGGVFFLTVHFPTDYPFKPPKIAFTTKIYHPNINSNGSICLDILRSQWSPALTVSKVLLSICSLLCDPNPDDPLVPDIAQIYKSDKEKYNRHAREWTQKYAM
Molecule | lacZ reporter activity
KITELNPHLMCALCGGYFIDATTIVECLHSFCKTCIVRYLETNKYCPMCDVQVHKTRPLL (PCGF2 RING domain (UniProt P35227)) | 0
B1 (RNF130 RING domain) | 13500
MEEMEEELKCPVCGSFYREPIILPCSHNLCQACARNILVQTPESESPQSHRAAGSGVSDY (TRIM9 RING domain (UniProt Q9C026)) | 0
EDVLSKDAGECAICLEELQQGDTIARLPCLCIYHKGCIDEWFEVNRSCPEHPSD (ZNRF2 RING domain (UniProt Q8NHG8)) | 13200
B2 (RNF17 RING domain) | 0
B3 (RNF7 RING domain) | 0
B4 (RNF10 RING domain) | 0
EIKDYKARLTCPCCNMRKKDAVLTKCFHVFCFECVKTRYDTRQRKCPKCNAAFGANDFHR (RNF20 RING domain (UniProt Q5VTR2)) | 0
B5 (MARCHF2 RING domain) | 0
B6 (SHPRH RING domain) | 0
B7 (CBLL1 RING domain) | 0
AAQLLEEKLTCAICLGLYQDPVTLPCGHNFCGACIRDWWDRCGKACPECREPFPDGAELR (TRIM65 RING domain (UniProt Q6PJ69)) | 0
PLRRLQEEKLCKICMDRHIAVVFIPCGHLVTCKQCAEAVDRCPMCSAVIDFKQRVF (BIRC8 RING domain (UniProt Q96P09)) | 0
B8 (MDM2 RING domain) | 0
B9 (TRIM47 RING domain) | 0
B10 (TRIM68 RING domain) | 0

Block 2
Target: CREB3, bZIP domain (human)
Technique: DHFR protein complementation
Sample: yeast
Notes: single substitutions, most at no-binding floor
Relative to: wild-type JUN-FOS pair
Reading: higher = stronger binding
Parent: JUN, bZIP domain (human); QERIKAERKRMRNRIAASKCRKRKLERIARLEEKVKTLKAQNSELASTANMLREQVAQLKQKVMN; partner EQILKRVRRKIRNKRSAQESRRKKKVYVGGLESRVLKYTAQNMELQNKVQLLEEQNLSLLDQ
Change | binding fitness [natural log]
T37N | -1.24
L38W | -1.53
K36T | -1.51
L52H | -1.53
Q41G | -1.52
V56T | -1.55
K34G | -1.4
E32I | -1.35
M51S | -1.31
I28T | -1.36
E33F | -1.34
K36C | -1.29
Q41F | -1.5
V35P | -1.52
T48A | -1.47

Block 3
Target: CCND3, cyclin fold, Cln2 fusion (human)
Technique: yeast growth competition, sequencing
Sample: yeast
Notes: weak parent motif
Relative to: not given
Reading: higher = stronger binding
Parent: BRCA2 docking peptide (human); CKKRRALDFLSRL
Change | normalised enrichment score
CKKRRALDALSRL [F9A] | 0.149
CKKRRALDFLSRA [L13A] | 0.146
CKARRALDFLSRL [K3A] | -0.00697
CKKRRALDFLSAL [R12A] | 0.226
CKKRRALDLLSRL [F9L] | 0.0874
CKKARALDFLSRL [R4A] | 0.0759
CAKRRALDFLSRL [K2A] | 0.16

Block 4
Target: ABI1, truncated, D143A, DHFR fusion (Arabidopsis thaliana)
Technique: DHFR PCA, deep sequencing
Sample: yeast
Notes: methotrexate growth selection, single substitutions
Together with: (+)-ABA 2500 µM
Relative to: wild-type fitted maximum
Reading: higher = stronger binding
Parent: PYL1, truncated, DHFR fusion (Arabidopsis thaliana); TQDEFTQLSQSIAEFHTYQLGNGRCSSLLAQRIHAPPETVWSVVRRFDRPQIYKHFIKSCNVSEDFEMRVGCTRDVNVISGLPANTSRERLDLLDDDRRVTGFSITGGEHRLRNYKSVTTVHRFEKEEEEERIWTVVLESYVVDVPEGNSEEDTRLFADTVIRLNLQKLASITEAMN; partner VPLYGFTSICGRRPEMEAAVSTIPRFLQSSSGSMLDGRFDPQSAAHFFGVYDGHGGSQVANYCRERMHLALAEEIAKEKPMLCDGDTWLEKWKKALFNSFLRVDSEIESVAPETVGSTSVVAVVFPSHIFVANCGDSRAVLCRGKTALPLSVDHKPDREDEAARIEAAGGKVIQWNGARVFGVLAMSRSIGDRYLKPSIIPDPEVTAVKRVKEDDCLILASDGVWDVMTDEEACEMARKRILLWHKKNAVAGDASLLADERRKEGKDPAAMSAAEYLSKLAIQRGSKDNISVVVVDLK
Change | relative binding score
V78Y | 62.8%
N114H | 100%
E89N | -8.19%
Q31V | 75.8%
D75T | 94%
S80T | 95.7%
V143Q | 85.6%
T17G | 95.8%
G107W | 79.8%
F66A | 97.4%
A170N | 85.4%
L138T | 75.8%
E130T | 103%
W41P | -28.3%
L112A | 39.1%
E128V | 96.8%
E125M | 100%
G21Q | 93.4%
N165Y | 70.1%
I79L | 93.2%
R88F | 94.4%
Q51E | 99.7%
V78M | 91.1%
G107Y | 83.3%
R111D | 68%

Block 5
Target: RNA binding protein fox-1 homolog 2, RRM domain, GST-SBP tag (RBFOX2, Homo sapiens, UniProt O43251-10, residues 100-194)
Technique: RNA Bind-n-Seq
Molecule type: RNA
Sample: in vitro
Tested at: 365 nM
Notes: natural RNA segment, single round, ends assumed
Relative to: no-protein control
Reading: higher = stronger binding
Residues (chain): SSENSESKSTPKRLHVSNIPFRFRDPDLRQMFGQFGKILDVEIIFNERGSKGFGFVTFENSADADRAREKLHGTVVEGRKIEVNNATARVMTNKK
Oligonucleotide | RBNS enrichment (R)
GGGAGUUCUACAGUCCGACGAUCUUUUUCCAAGGAGUGAAUGUGGUUUAAUUACUGGACUCUCUUAGCACAGGAAGGUGGAAACAAAAUGCCAGGCCUCUGCUCUGAAGAGCAAAACUGCUGUCGCUGCAGUAUGGAAUUCUCGGGUGCCAA | 0.307
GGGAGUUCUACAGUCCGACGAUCAGUUGUUUUACCUUUCAUCCCAAUCUGAAAAGUUUUAAUAAAUGCUGAGCUUAUUCUUAGGGUAUGACCUGGCAUUAUUUCCAGUGACUAGUCAGGCAUUAUGCCUGAUGUGGAAUUCUCGGGUGCCAA | 0.25
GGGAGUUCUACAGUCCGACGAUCGAAUUUGGGGUAAGAGGAAGUGAGAUCUCCGCUUGCAGGUCAGCCCCUGCCUUGCAGGGCGGGCUGGCUUGACUCAGGCCCUGUGAGAUAGAGGGCCCAGCCCAGCCCCAUGGAAUUCUCGGGUGCCAA | 0.685
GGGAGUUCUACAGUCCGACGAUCUACUGCUAGCCAAAGGGCUCGGGCCCCCCCCUGGACUGACCUGCCCAUGUAAUUUUCCCACUGCCACAGACCUCUCCAACCCAGGGCCCCUGGACAGCACAGAUCCAGUGUGGAAUUCUCGGGUGCCAA | 0.685
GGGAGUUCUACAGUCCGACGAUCGUUUUCUUCACUAACAUUUAUUACCCUAGAUUAUUCAUGGGAAUCUGGAACUGUUGGACACAGUUGAAAGUGUGGUGGGGAAACCAUACAAUUGUUUUUACAGUUUUAGCUGGAAUUCUCGGGUGCCAA | 0.55
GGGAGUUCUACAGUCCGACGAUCAGACACAAACCAGCACGUCAAGGGCCUAGCUCCUCCCCACCCCGGCAUUUCAGCGUCAAGUGCACUUAGCGGGGUACCCAGCCCCCCCAGUCCCAACACCUGUCCUGUGUUGGAAUUCUCGGGUGCCAA | 0.341
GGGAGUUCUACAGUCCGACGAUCACCGAUGUAUGAUGUGAAAAGGAAACAGAUGAUGAUGUGUAUAAUAAAAUUGUUACCAUUCACUCAGACUUUAUUAGUUAGGCCAUGUGUGUAUUCACCAUGGAUUAGUUUGGAAUUCUCGGGUGCCAA | 0.794
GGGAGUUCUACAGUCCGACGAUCUGGAUUCUAUCCCAGACCCAGGUUUUCUAGUUCAGAAGACUAACCAGCUUAGUCAGAAGAUGGUUCCAUGGAAGAAAAAGGCCAAGGAGUUUGAAGAUUUUUCUUCUAGAUGGAAUUCUCGGGUGCCAA | 0.335
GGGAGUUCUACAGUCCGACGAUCAACAAAGGAAGGACAGCUCAUUCCUCAUGGGCGAUCACUCCGCAUCUAUAGGGUCGAGCCUAGGGGAGCUUGAGGGAGGGCUGGGGCCUCCUUGUCCUGGAUUUCCAGCUUGGAAUUCUCGGGUGCCAA | 2.89
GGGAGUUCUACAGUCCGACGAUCUCAAAGGGCAGACAUUGCAGCCUUUUUAUAUUGCCUGCCAAAAUUUGAAGUAUUAGAACAAAGUGUGCCAUGAGAGAAAAACUUAACAAGGAGUUUUGAAAAGAAAUGCAUGGAAUUCUCGGGUGCCAA | 11.1
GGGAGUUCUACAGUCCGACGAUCAAACGCAAACAAAAUUCUGGUGAAAUAACUGGGCUGUUGAUGCAGGUCAGGUGGAAGCUGAGAAAUAAAUGUAUAUAAAUAUGUAGCUGAGGAUAUUAAUUCCCAUUAUAUGGAAUUCUCGGGUGCCAA | 0.334
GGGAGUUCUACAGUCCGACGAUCGGUGGCCCGCAUGCUUGGGAGAGUUAAUAGGAAGAUUGAGUUCAAACGCUUAACCUUCUGUUAGCCAAUAUAUAAUUAAUGCAUGCUACUCCAUGAAUUUCUGCCUAUGAUGGAAUUCUCGGGUGCCAA | 3.45

For quick reference, copied from above (block 5):
Oligonucleotide | RBNS enrichment (R)
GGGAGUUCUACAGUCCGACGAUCUCAAAGGGCAGACAUUGCAGCCUUUUUAUAUUGCCUGCCAAAAUUUGAAGUAUUAGAACAAAGUGUGCCAUGAGAGAAAAACUUAACAAGGAGUUUUGAAAAGAAAUGCAUGGAAUUCUCGGGUGCCAA | 11.1
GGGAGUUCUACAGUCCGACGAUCAAACGCAAACAAAAUUCUGGUGAAAUAACUGGGCUGUUGAUGCAGGUCAGGUGGAAGCUGAGAAAUAAAUGUAUAUAAAUAUGUAGCUGAGGAUAUUAAUUCCCAUUAUAUGGAAUUCUCGGGUGCCAA | 0.334
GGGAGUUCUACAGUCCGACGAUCAGUUGUUUUACCUUUCAUCCCAAUCUGAAAAGUUUUAAUAAAUGCUGAGCUUAUUCUUAGGGUAUGACCUGGCAUUAUUUCCAGUGACUAGUCAGGCAUUAUGCCUGAUGUGGAAUUCUCGGGUGCCAA | 0.25
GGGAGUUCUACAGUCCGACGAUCACCGAUGUAUGAUGUGAAAAGGAAACAGAUGAUGAUGUGUAUAAUAAAAUUGUUACCAUUCACUCAGACUUUAUUAGUUAGGCCAUGUGUGUAUUCACCAUGGAUUAGUUUGGAAUUCUCGGGUGCCAA | 0.794
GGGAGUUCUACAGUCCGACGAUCGUUUUCUUCACUAACAUUUAUUACCCUAGAUUAUUCAUGGGAAUCUGGAACUGUUGGACACAGUUGAAAGUGUGGUGGGGAAACCAUACAAUUGUUUUUACAGUUUUAGCUGGAAUUCUCGGGUGCCAA | 0.55
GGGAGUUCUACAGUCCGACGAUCUACUGCUAGCCAAAGGGCUCGGGCCCCCCCCUGGACUGACCUGCCCAUGUAAUUUUCCCACUGCCACAGACCUCUCCAACCCAGGGCCCCUGGACAGCACAGAUCCAGUGUGGAAUUCUCGGGUGCCAA | 0.685
